# Measured values from different studies.
# “And” joins repeats or separate records; there may be more than shown. ± marks the error that the study gave.
Compound,target or system,test,test system,conditions,how to read,quantity,result
CCN(c1cc(-c2ccc(CN3CCOCC3)cc2)cc(C(=O)NCc2c(C)cc(C)[nH]c2=O)c1C)C1CCOCC1,,,"mouse xenograft, stomach",dose not given,,organ weight,126 mg
O=C(COc1ccc(Cl)cc1)NC12CC(c3nnc([C@H]4C[C@@H](OC(F)(F)F)C4)o3)(C1)C2,,,"healthy human both sexes, plasma","oral, 100 mg once daily, day 1, mean",,Cmax,1.31 µM
CO[C@H]1/C=C/O[C@@]2(C)Oc3c(C)c(O)c4c(O)c(c(/C=N/N5CCN(C)CC5)c(O)c4c3C2=O)NC(=O)/C(C)=C\C=C\[C@H](C)[C@H](O)[C@@H](C)[C@@H](O)[C@@H](C)[C@H](OC(C)=O)[C@@H]1C,,,healthy human volunteers,"oral, 600 mg, itraconazole cohort, with: gepotidacin 1500 mg",,incidence of burning sensation,6%
N#Cc1ccc2c(c1)[C@H]1CCCN(C(=O)c3ccc4[nH]cnc4c3)[C@H]1C2,,,human,"10 mg, end of trial",,maximum ACTH level,15.1 pmol/L
O=C(O)[C@H]1O[C@@H](Oc2cc(O)c3c(=O)c(O)c(-c4ccc(O)c(O)c4)oc3c2)[C@H](O)[C@@H](O)[C@@H]1O,,,human CSF,"concentration not given, mean",,CSF concentration,not detected
C[C@@H](Nc1cc(F)cc(F)c1)c1cc(C(=O)N(C)C)cc2c(=O)cc(N3CCOCC3)oc12,,refers to: aspartate aminotransferase increased,patients with advanced solid tumours,"oral, dose not given, dose finding phase I",,treatment-related serious adverse events,1.6%
COc1ncc(-c2nc3c(n2C(C)C)[C@H](c2ccc(Cl)cc2)N(c2cc(Cl)cn(C)c2=O)C3=O)c(OC)n1,,,"human patients, plasma","oral, 15 mg, low-dose arm, cycle 1 day 8",,median Tmax,3.9 h
O=C(O)C=Cc1ccc(O[C@@H]2O[C@H](C(=O)O)[C@@H](O)[C@H](O)[C@H]2O)cc1,,,human CSF,"concentration not given, mean",,CSF concentration,not detected
C=CC(=O)N1CCC[C@@H](n2nc(-c3ccc(Oc4ccccc4)cc3)c3c(N)ncnc32)C1,,,"male Wistar rat, plasma","oral, 40 mg/kg",,AUMC(0-inf),18400 ± 265 ng·h²/mL
NCCCCCCCNCc1ccc(CNC(=O)c2csc3nc[nH]c(=O)c23)cc1,,haemolysis,human red blood cells,"1 h, 37 °C",,EC50,> 100 µM
CC(C)n1c(Nc2cccnc2)nc2cnc(Nc3ccc(N4CCN(C)CC4)cc3)nc21,,refers to: gum pain,healthy male subjects,"oral, 100 mg, study, with: gemfibrozil",,subjects with adverse event,0%
COc1ccc2[nH]c([S+]([O-])Cc3ncc(C)c(OC)c3C)nc2c1 (stereo not shown),,,"healthy Chinese volunteers CYP2C19 IM, plasma","oral, 20 mg single dose, enteric-coated tablets",,AUC(0-t),833 ± 499 ng·h/mL
CCN1C(=O)N(c2c(F)c(OC)cc(OC)c2F)Cc2cnc3[nH]c(CN4CCOCC4)cc3c21,,"exposure-response model vs AUCss, refers to: serum creatinine change from baseline",human,once daily monotherapy,,Emax,43.4%
CC(C)C[C@H](NC(=O)C[C@H](O)[C@H](CC(C)C)NC(=O)[C@H](Cc1c[nH]cn1)NC(=O)CNC(=O)[C@@H](NC(=O)[C@H](C)NC(=O)[C@H](Cc1c[nH]c2ccccc12)NC(=O)[C@H](CCC(N)=O)NC(=O)[C@@H](Cc1ccccc1)NC(=O)COCCOCCNC(=O)CCC(C(=O)O)N1CCN(CC(=O)O)CCN(CC(=O)O)CCN(CC(=O)O)CC1)C(C)C)C(N)=O (stereo partly shown) [lutetium-177 labelled],,,"female BALB/c nu/nu mice, brain","intravenous, 100 pmol, 4 h, with: PA 300 µg",,tissue uptake,0.011 ± 0.001 %ID/g
O=C(O)CCC(=O)O.[2H]C([2H])([2H])Oc1cc(C)c2[nH]ccc2c1CN1CC[C@@H](C2CC2)C[C@H]1c1ccc(C(=O)O)cc1,,multiple ascending dose,healthy Chinese subjects,300 mg once daily,,subjects with increased creatinine TEAE,0%
Cc1ccc(N(C)C(=O)/C=C/c2ccco2)cc1,,hot plate test,mice,"oral, 30 mg/kg daily for 7 days, 60 min, day 8",,licking latency,14.9 ± 0.2 s
O=C(N[C@H](Cc1c[nH]c2ccccc12)C(=O)Nc1ccncc1)c1ccc(-c2cc(C(F)(F)F)ccc2F)cc1F,,,"Swiss Webster mouse, female, fat","oral, 50 mg/kg, 2 h, 20% Kolliphor vehicle",,concentration,18.2 µM
CN1CCN(c2cccc3c2CCN(C(=O)/C=C/c2c(-n4cnnn4)ccc(Cl)c2F)[C@@H]3C(=O)Nc2ccc(C(=O)O)cc2)C(=O)C1,,,healthy human subjects,"intravenous infusion, 25 mg/h, 2 h",,subjects with any adverse event,0%
Cc1ccc([C@@H]2O[C@H](CO)[C@@H](O)[C@H](O)[C@H]2O)cc1Cc1ccc(-c2ccc(F)cc2)s1,,refers to: inorganic phosphorus,Japanese type 2 diabetes patients,"25 mg, day 2, 24 h urine collection",relative to: baseline,urinary phosphate excretion change,48 mg
O=c1oc2cc(O)ccc2c2ccc(O)cc12,,,human CSF,"concentration not given, mean",,CSF concentration,not detected
CNC(=O)c1ccc(-c2cnc3ncc(Cc4ccc5ncccc5c4)n3n2)cc1F,,,HCC patients,"oral, 600 mg twice daily, all grades RP2D expansion",,AST increased incidence,27%
COc1ccc([C@@H](O)c2cc(-c3ncnc4cc(N5CCOCC5)ccc34)c(F)cc2Cl)nn1,,,locally advanced rectal cancer patients,"100 mg, with: capecitabine and radiotherapy",,lymphopenia TEAE incidence,17%
O=C(O)Cc1cccc(O)c1,,,human CSF,"concentration not given, mean",,CSF concentration,not detected
NC(N)=NCCC[C@@H](N)C(=O)N[C@@H](CCCN=C(N)N)C(=O)N1CCC[C@H]1C(=O)N1C[C@H](O)C[C@H]1C(=O)NCC(=O)N[C@@H](Cc1cccs1)C(=O)N[C@@H](CO)C(=O)N1Cc2ccccc2C[C@@H]1C(=O)N1[C@H](C(=O)N[C@@H](CCCN=C(N)N)C(=O)O)C[C@@H]2CCCC[C@@H]21,,popPK full model bootstrap median,human,"subcutaneous, dose not given",,peripheral volume (Vp/F),1.79 L
O=C(Nc1nc2cccc(-c3ccc(CN4CCS(=O)(=O)CC4)cc3)n2n1)C1CC1,,refers to: cystitis,human rheumatoid arthritis patients,"oral, 300 mg once daily, 4 weeks, regardless of relatedness",,treatment-emergent adverse events,5%
CC(C)NCC(O)COc1cccc2ccccc12 (stereo not shown),,,"male Hartley guinea pigs, anaesthetized","intravenous, 1 mg/kg group, baseline before infusion",,heart rate,221 ± 0.4 beats/min
COc1cc2nccc(Oc3ccc(NC(=O)c4cc5c(n(-c6ccccc6)c4=O)CCCC5=O)nc3)c2cc1OC,,,"human, relapsed/refractory AML","oral, 3 mg once daily, grade ≥3, any causality",,patients with Klebsiella bacteraemia,20%
CC[C@H](C)[C@H](NC(=O)[C@H](Cc1ccccc1)NC(=O)[C@H](CCC(=O)O)NC(=O)[C@H](CCCCNC(=O)COCCOCCNC(=O)COCCOCCNC(=O)CC[C@H](NC(=O)CCCCCCCCCCCCCCCCC(=O)O)C(=O)O)NC(=O)[C@H](C)NC(=O)[C@H](C)NC(=O)[C@H](CCC(N)=O)NC(=O)CNC(=O)[C@H](CCC(=O)O)NC(=O)[C@H](CC(C)C)NC(=O)[C@H](Cc1ccc(O)cc1)NC(=O)[C@H](CO)NC(=O)[C@H](CO)NC(=O)[C@@H](NC(=O)[C@H](CC(=O)O)NC(=O)[C@H](CO)NC(=O)[C@@H](NC(=O)[C@H](Cc1ccccc1)NC(=O)[C@@H](NC(=O)CNC(=O)[C@H](CCC(=O)O)NC(=O)C(C)(C)NC(=O)[C@@H](N)Cc1cnc[nH]1)[C@@H](C)O)[C@@H](C)O)C(C)C)C(=O)N[C@@H](C)C(=O)N[C@@H](Cc1c[nH]c2ccccc12)C(=O)N[C@@H](CC(C)C)C(=O)N[C@H](C(=O)N[C@@H](CCCNC(=N)N)C(=O)NCC(=O)N[C@@H](CCCNC(=N)N)C(=O)NCC(=O)O)C(C)C,,12-lead Holter ECG,healthy humans,"subcutaneous, 1.5 mg once weekly, 36 h, steady state",relative to: placebo,QT change from baseline,-19.7 ms
CC(C)(C(=O)N1CCOc2c(C#N)cncc2C1)C(F)F,,refers to: Gastrointestinal disorders,human,"oral, 10 mg once daily, 14 days, multiple ascending dose",,subjects with adverse event,12.5%
CCO[C@H]1CCN(Cc2c(OC)cc(C)c3[nH]ccc23)[C@H](c2ccc(C(=O)O)cc2)C1,,,"PNH patients, active haemolysis","oral, 25 mg, 4 weeks, treatment",,incidence of abdominal distension,14.3%
CC(C)C[C@H](NC(=O)C[C@H](O)[C@H](CC(C)C)NC(=O)[C@H](Cc1c[nH]cn1)NC(=O)CNC(=O)[C@@H](NC(=O)[C@H](C)NC(=O)[C@H](Cc1c[nH]c2ccccc12)NC(=O)[C@H](CCC(N)=O)NC(=O)[C@@H](Cc1ccccc1)NC(=O)COCCOCCNC(=O)CN1CCN(CC(=O)O)CCN(CC(=O)O)CCN(CC(=O)O)CC1)C(C)C)C(N)=O [lutetium-177 labelled],,,"female BALB/c nu/nu mice, bone","intravenous, 50 pmol, 24 h",,tissue uptake,0.031 ± 0.008 %ID/g
CNC(=O)c1ccc(-c2cnc3ncc(Cc4ccc5ncccc5c4)n3n2)cc1F,,,Japanese patients,"oral, 400 mg, any grade",,Anaemia dose reduction/interruption,1%
CCCCC1=NC2(CCCC2)C(=O)N1Cc1ccc(-c2ccccc2S(=O)(=O)Nc2noc(C)c2C)c(COCC)c1,,,"healthy adult volunteers, plasma","oral, 100 mg, single dose, fed, crushed tablet",,Tmax,4.26 h
CSc1cc(C)nc(SC)c1NC(=O)CN1CCN(CCSc2nc3ccccc3[nH]2)CC1.Cl,,,"mouse, nasal olfactory epithelium","intranasal, 50 µL of 3.24 mg/mL in 0.01 N HCl daily, 7 days",,olfactory epithelium thickness,27.4 and 20.2 and 25.9 and 21.1 and 23.4
CNC(=O)c1ccc(-c2cnc3ncc(Cc4ccc5ncccc5c4)n3n2)cc1F,,,"human, plasma","oral, 200 mg, mean",,AUC(0-inf),5630 ng·h/mL
Cn1cc(-c2ccc(-c3cncc(Cl)c3N3CCC4(CCNC4=O)CC3)cc2)cn1,COLO 205,"gene expression, microarray, refers to: FABP5 mRNA",,"concentration not given, 2 h",relative to: untreated cells,log2 fold change,-2.03
Cc1cc(-c2nccc3c2ccn3CC(=O)Nc2ccc(-c3cnccn3)cn2)ccn1,,,human,"SAD part, single 20 mg dose",,subjects with Vomiting TEAEs,0%
CNC(=O)c1cc(Oc2ccc(NC(=O)Nc3cc(C(C)(C)C)nn3-c3ccc4ncccc4c3)c(F)c2)ccn1,,,human,"oral, dose not given, cycles 1 and 2, Low Cmax subgroup",,patients with any AE of special interest,47%
OCc1nc2ccc(NCc3ccc(C(F)(F)F)cc3)cc2[nH]1,,,"Balb/c mice, male, plasma","oral, 10 mg/kg",,terminal elimination rate constant,5.28e-05 ± 2.78e-05 s⁻¹
CN(C(=O)n1cnc(-c2cccnc2)c1)C1CCCCC1,,,"Wistar rat, midbrain","oral, 10 mg/kg, 1 h, single dose",,tissue concentration,80 ± 15.9 ng/g
NC1(C(=O)N[C@@H](CCO)c2ccc(Cl)cc2)CCN(c2nc[nH]c3nccc2-3)CC1,,,metastatic CRPC patients,"dose not given, any grade, treatment-related, all doses, with: enzalutamide 160 mg daily",,incidence of Pyrexia,6.7%
CCc1cc(C(=O)NC)c2nccc(N3CCc4c(cc(Cn5ccnc5)cc4-c4cn(C)nc4C(F)(F)F)C3=O)c2c1,,refers to: MPV,Sprague Dawley rat,"oral, 100 mg/kg once daily, 7 days",relative to: vehicle,change in clinical chemistry or haematology parameter,-0.62%
FC(F)(F)c1ccc(CNc2ccc(Cc3c[nH]c4ncc(Cl)cc34)cn2)cn1,,refers to: Headache,"patients with advanced solid tumours, non-TGCT cohort","oral, 1000 mg/day, any grade",,treatment-related adverse events,2%
Cc1ncnc2c1ccn2[C@@H]1C[C@H](Oc2cc(C(F)F)c(F)c3c2CNCC3)[C@@H](O)[C@H]1O,,,human,"oral, 2 mg twice daily",,AUC(0-tau),305 ng·h/mL and 148 ng·h/mL
CC#CC(=O)N[C@H]1CCCN(c2c(F)cc(C(N)=O)c3[nH]c(C)c(C)c23)C1,,,healthy volunteers,"oral, 10 mg single dose, SAD phase I",,adverse events,83.3%
[18F]c1ccc(-c2ccc3c(c2)[nH]c2ccncc23)cn1,,ex vivo biodistribution,"normal B6SJL mice, cecum","intravenous, 30 min",,uptake,0.756 ± 0.231 SUV
CCN1/C(=C/C(C)=O)Sc2ccc(F)cc21,,,cynomolgus monkey,"oral, 100 mg/kg, 6 h post-dose",,QRS duration,36 ± 1 ms
CCOc1c([C@H](C)n2nc(C)c3c(N)ncnc32)cc(Cl)c(F)c1[C@@H]1CNC(=O)C1,,refers to: QTcF ≤450 ms,previously treated B-cell malignancy,"oral, 5 mg once daily, baseline QTcF ≤450 ms",,ECG observations,100%
CNc1ccc(-c2nc3ccc(O)cc3s2)cc1 [carbon-11 labelled],,ex vivo biodistribution,"APP/PS1 mouse, AD model, cortex","intravenous, 30 min",,SUV,0.147 ± 0.08

# Excerpt of the above:
Compound,target or system,test,test system,conditions,how to read,quantity,result
O=c1oc2cc(O)ccc2c2ccc(O)cc12,,,human CSF,"concentration not given, mean",,CSF concentration,not detected
CNC(=O)c1ccc(-c2cnc3ncc(Cc4ccc5ncccc5c4)n3n2)cc1F,,,HCC patients,"oral, 600 mg twice daily, all grades RP2D expansion",,AST increased incidence,27%
COc1ccc([C@@H](O)c2cc(-c3ncnc4cc(N5CCOCC5)ccc34)c(F)cc2Cl)nn1,,,locally advanced rectal cancer patients,"100 mg, with: capecitabine and radiotherapy",,lymphopenia TEAE incidence,17%
O=C(O)Cc1cccc(O)c1,,,human CSF,"concentration not given, mean",,CSF concentration,not detected
NC(N)=NCCC[C@@H](N)C(=O)N[C@@H](CCCN=C(N)N)C(=O)N1CCC[C@H]1C(=O)N1C[C@H](O)C[C@H]1C(=O)NCC(=O)N[C@@H](Cc1cccs1)C(=O)N[C@@H](CO)C(=O)N1Cc2ccccc2C[C@@H]1C(=O)N1[C@H](C(=O)N[C@@H](CCCN=C(N)N)C(=O)O)C[C@@H]2CCCC[C@@H]21,,popPK full model bootstrap median,human,"subcutaneous, dose not given",,peripheral volume (Vp/F),1.79 L
O=C(Nc1nc2cccc(-c3ccc(CN4CCS(=O)(=O)CC4)cc3)n2n1)C1CC1,,refers to: cystitis,human rheumatoid arthritis patients,"oral, 300 mg once daily, 4 weeks, regardless of relatedness",,treatment-emergent adverse events,5%
CC(C)NCC(O)COc1cccc2ccccc12 (stereo not shown),,,"male Hartley guinea pigs, anaesthetized","intravenous, 1 mg/kg group, baseline before infusion",,heart rate,221 ± 0.4 beats/min
COc1cc2nccc(Oc3ccc(NC(=O)c4cc5c(n(-c6ccccc6)c4=O)CCCC5=O)nc3)c2cc1OC,,,"human, relapsed/refractory AML","oral, 3 mg once daily, grade ≥3, any causality",,patients with Klebsiella bacteraemia,20%
